Measurements pooled from the literature.
Numbered parts are unrelated; each lists some results of a single study. Changes are numbered by the printed parent chain.
UniProt Q9XFM0, sequence (whole entry, looked up): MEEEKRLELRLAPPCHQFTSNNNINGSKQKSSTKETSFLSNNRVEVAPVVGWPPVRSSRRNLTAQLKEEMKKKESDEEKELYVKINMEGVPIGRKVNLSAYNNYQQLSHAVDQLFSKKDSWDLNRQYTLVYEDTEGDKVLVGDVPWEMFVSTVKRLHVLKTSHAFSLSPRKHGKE
UniProt Q9ZTX9, sequence (whole entry, looked up): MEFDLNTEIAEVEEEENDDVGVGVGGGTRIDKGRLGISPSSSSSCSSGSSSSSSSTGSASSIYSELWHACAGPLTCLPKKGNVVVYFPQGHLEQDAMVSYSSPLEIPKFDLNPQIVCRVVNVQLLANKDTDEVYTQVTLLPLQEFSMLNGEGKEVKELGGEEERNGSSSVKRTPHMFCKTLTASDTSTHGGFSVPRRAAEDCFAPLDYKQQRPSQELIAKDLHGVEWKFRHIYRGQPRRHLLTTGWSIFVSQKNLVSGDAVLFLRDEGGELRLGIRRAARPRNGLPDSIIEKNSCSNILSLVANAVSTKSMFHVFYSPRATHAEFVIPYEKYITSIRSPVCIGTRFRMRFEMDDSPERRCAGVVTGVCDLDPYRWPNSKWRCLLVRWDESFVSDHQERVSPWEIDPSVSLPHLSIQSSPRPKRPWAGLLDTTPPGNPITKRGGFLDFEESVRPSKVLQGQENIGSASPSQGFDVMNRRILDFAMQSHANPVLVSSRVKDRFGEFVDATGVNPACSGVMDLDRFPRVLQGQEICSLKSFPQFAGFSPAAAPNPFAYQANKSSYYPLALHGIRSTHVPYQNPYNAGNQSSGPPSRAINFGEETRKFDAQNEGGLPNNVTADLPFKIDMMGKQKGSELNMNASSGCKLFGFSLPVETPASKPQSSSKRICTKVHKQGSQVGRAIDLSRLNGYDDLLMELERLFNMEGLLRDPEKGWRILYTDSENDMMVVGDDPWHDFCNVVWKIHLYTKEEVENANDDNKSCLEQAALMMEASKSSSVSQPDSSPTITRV
UniProt Q93WC4, sequence (whole entry, looked up): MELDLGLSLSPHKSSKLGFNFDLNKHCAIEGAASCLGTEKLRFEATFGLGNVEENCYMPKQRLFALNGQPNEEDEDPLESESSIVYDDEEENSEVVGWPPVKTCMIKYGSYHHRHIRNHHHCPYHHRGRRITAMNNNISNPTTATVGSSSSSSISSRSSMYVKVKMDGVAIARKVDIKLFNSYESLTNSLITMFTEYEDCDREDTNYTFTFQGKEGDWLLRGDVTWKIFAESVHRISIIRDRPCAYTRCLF
UniProt P93024, sequence (whole entry, looked up): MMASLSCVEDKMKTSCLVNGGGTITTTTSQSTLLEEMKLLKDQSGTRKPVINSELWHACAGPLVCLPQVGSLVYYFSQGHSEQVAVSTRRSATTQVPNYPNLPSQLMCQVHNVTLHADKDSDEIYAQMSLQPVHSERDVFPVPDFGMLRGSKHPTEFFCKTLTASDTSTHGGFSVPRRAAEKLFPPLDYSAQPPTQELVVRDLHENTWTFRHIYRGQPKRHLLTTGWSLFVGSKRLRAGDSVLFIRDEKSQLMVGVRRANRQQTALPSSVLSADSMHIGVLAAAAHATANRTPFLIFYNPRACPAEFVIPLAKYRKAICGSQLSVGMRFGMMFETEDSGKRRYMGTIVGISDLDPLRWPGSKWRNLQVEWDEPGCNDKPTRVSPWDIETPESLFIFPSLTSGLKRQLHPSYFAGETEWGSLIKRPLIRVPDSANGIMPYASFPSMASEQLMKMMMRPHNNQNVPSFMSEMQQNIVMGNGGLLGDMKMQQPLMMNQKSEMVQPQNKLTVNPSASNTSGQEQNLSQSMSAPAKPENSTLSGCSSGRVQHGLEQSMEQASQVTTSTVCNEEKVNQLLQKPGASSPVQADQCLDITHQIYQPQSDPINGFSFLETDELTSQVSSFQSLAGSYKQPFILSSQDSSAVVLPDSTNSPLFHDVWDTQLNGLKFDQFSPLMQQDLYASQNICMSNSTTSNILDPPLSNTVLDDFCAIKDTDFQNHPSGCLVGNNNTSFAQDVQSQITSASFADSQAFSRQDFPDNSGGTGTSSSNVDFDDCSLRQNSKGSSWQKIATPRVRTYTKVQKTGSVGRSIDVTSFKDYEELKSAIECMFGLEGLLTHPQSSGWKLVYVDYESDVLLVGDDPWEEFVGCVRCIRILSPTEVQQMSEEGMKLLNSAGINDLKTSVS
UniProt Q8RYC6, sequence (whole entry, looked up): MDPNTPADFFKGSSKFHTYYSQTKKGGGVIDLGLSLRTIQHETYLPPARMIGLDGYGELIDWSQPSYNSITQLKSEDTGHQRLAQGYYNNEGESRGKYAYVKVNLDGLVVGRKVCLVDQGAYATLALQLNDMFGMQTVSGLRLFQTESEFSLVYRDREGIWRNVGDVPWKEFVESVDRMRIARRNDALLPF
UniProt Q94JM3, sequence (whole entry, looked up): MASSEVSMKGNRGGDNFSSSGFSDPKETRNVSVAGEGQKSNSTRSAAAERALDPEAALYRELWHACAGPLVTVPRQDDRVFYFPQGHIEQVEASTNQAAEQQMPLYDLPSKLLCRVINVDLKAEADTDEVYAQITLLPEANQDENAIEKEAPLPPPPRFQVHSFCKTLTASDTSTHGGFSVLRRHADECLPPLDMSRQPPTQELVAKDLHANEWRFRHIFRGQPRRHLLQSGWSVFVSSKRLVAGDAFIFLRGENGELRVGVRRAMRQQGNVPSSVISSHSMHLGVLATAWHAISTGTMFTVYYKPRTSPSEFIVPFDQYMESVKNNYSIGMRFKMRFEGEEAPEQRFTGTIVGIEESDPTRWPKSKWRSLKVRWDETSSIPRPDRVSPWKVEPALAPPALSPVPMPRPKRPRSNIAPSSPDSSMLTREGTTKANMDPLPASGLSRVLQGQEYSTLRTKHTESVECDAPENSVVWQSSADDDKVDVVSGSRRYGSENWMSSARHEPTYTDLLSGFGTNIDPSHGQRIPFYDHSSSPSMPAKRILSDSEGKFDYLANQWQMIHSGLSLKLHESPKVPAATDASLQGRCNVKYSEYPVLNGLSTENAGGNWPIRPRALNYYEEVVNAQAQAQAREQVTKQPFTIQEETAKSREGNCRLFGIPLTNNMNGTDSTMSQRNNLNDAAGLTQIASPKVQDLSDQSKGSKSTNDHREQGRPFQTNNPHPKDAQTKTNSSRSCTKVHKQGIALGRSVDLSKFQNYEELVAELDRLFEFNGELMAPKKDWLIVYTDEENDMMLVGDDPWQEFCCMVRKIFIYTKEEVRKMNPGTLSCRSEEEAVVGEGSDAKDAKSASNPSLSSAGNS
UniProt Q9C7I9, sequence (whole entry, looked up): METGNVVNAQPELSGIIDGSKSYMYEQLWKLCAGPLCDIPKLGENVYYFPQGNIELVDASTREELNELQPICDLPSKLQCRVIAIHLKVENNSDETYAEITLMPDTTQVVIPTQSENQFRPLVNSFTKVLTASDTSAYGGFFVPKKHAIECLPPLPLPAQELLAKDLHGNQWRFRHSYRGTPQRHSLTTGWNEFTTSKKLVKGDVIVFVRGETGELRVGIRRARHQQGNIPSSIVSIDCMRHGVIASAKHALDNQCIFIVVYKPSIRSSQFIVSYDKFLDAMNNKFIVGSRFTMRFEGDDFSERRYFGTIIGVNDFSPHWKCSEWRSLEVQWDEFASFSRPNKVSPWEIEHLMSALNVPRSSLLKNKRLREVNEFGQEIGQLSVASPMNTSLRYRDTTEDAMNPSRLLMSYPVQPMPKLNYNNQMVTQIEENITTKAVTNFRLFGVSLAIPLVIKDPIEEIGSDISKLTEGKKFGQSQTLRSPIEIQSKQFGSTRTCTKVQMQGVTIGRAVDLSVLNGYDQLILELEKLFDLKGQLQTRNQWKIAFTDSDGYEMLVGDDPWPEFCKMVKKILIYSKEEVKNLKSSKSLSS

Study 1 — method: protein-binding microarray; molecule type: double-stranded DNA, one strand shown; sample: in vitro; tested at: 0.8 µM; notes: whole 60-bp probe, no competitor; reading: higher = stronger binding; constant ends, left off below: … GTCTTGATTCGCTTGACGCTGCTG
Target: Centromere-binding protein 1, full length, N-terminal tag (CBF1, Saccharomyces cerevisiae, UniProt P17106, residues 1-351)
UniProt P17106, sequence (whole entry, looked up): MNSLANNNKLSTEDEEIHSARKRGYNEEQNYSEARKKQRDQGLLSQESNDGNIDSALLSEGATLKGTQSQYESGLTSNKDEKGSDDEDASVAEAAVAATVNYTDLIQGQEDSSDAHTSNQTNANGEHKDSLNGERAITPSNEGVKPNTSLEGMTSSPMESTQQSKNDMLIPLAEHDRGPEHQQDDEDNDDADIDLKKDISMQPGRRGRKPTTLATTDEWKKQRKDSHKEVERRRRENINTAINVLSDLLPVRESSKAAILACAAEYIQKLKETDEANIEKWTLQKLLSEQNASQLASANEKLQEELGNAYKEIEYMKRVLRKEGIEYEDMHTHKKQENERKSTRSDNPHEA
| Sequence | fluorescence intensity [a.u.] |
| --- | --- |
| GAATAAAGTACAGATCACGTAACGGAATGCTACTAG | 613 |
| GAATGCTATTGATATCACGACATGTGCGCTTCTTAG | 1180 |
| GAAAATAATCATATGCACGATGCACACTCTATATAG | 637 |
| CCTAACTACTATATTCACGTTTAATAGCTTCGTACA | 560 |
| GAAACTATGCGTTCCTTCGTGATCAGGATCCCTTAG | 612 |
| TGTACGAAGCTATGCGGTGTGATTATAGTAGTTAGG | 535 |
| TGTACGAAGCTATACTGATGCATTATAGTAGTTAGG | 507 |
| CTATGACAAATATTTGATGTTACCGAAATAGCATTC | 501 |
| TGTACGAAGCTATATCATGTGTGTATAGTAGTTAGG | 629 |
| GAACTGAAGTCCTGGTACGCCACCTGGCACTTCTAG | 507 |
| GAATACGTGGTAATGAACGTGTATACATATATTTAG | 573 |
| GAAGTTAGAGGCTATAGCATCAGATATACAAAATAG | 477 |
| GAATTTCTATTCGATCACGAGCTCTACTGCTGGTAG | 2690 |
| GAAGTCCGGGATGTCCACGCACGGCAATGGCCATAG | 509 |
| GAATACGTACAACGTGATATTTTCCGATTTTCCTAG | 1280 |
| CCTAACTACTATAACGTGGGCCCATAGCTTCGTACA | 509 |
| CTAGTTGAGCAGTGCCCCGTGGAAACGTAAACTTTC | 502 |
| CTAATTAGATTCCCTGATGTTCACATATGGGGATTC | 504 |
| GAATATTTCCCGTGTAACGTGATATATTTGTGATAG | 2390 |
| GAAACGTTTTATCGTGGTGTGTTCAGTCTCCTTTAG | 538 |
| CCTAACTACTATAGTCACGTGCCATAGCTTCGTACA | 26400 |
| CTATAATTGAACATTCTCGTGCGTTTAAACGTCTTC | 645 |
| GAATGAGACCGGAATCGCATCAGGTCTTATTAATAG | 480 |
| GAATCTCTAAAAGGGAGCGTGATAGATAAAGCATAG | 977 |
| GAACGCTGGGTAATGGACGTGTCACTCTACTTCTAG | 535 |

Study 2 — method: universal PBM; molecule type: double-stranded DNA, one strand shown; sample: in vitro; tested at: not given; reading: higher = stronger binding
Target: Sal-like protein 4, full length isoform B (SALL4, Homo sapiens, UniProt Q9UJQ4-2, residues 1-616)
Notes: 8-mer, flanks averaged, mean of replicates
Construct (chain): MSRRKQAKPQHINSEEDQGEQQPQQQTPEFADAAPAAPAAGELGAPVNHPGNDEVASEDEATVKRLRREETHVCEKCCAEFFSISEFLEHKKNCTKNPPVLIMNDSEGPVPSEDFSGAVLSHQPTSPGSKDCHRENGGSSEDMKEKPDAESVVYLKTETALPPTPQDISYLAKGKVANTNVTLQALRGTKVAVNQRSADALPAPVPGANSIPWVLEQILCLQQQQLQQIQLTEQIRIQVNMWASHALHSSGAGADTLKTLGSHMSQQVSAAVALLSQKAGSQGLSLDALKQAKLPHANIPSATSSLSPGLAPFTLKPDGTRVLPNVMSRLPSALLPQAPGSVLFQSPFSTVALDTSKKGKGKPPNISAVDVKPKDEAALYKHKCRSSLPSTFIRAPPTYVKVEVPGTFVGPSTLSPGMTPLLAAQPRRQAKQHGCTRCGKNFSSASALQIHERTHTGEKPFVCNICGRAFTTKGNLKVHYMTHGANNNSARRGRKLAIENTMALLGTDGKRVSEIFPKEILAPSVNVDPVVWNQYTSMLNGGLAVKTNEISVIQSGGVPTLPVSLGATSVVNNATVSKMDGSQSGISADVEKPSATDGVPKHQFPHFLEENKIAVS
| Sequence | E-score |
| --- | --- |
| AAAGCTTG | -0.00631 |
| ACCGTGTA | 0.00472 |
| GGTCGACA | -0.0521 |
| GGGGACTA | -0.03 |
| CGGAATGC | -0.222 |
| AATGCTTG | -0.0477 |
| CAGGATGG | -0.103 |
| AAGGTTTA | 0.114 |
| CGCGGCCA | -0.244 |
| GGTCTAGA | -0.046 |
| GCGATTAC | -0.0128 |
| ATAGGCGC | 0.0619 |
| CGAGGGGC | -0.344 |
| CATGCGGC | -0.119 |
| AACAGTTA | 0.0829 |
| CGAGGAAC | -0.122 |
| CAGACGCC | -0.274 |
| CCTTATTA | 0.342 |
| GCAGCATA | -0.0423 |
| GACCCGCA | -0.165 |
| CGCAAGGC | -0.169 |
| CTAGTCGC | -0.201 |
| AATAATGT | 0.357 |
| AGACACAC | -0.176 |
| GGGAATTA | 0.231 |

Study 3 — partner: H2AC14 (Homo sapiens, UniProt Q99878); method: cross-linking MS; notes: hits only
| Molecule | interaction screen |
| --- | --- |
| H2BC21 (Homo sapiens, UniProt Q16778) | cross-linked |
| H2BC12 (Homo sapiens, UniProt O60814) | cross-linked |
| H2BC9 (Homo sapiens, UniProt Q93079) | cross-linked |

Study 4 — target: CCND2, cyclin fold, Cln2 fusion (human); method: yeast growth competition, sequencing; sample: yeast; notes: weak parent motif; baseline: not given; reading: higher = stronger binding
Starting sequence: WEE1 docking peptide (human); CTLRQKLIFSPCS; partner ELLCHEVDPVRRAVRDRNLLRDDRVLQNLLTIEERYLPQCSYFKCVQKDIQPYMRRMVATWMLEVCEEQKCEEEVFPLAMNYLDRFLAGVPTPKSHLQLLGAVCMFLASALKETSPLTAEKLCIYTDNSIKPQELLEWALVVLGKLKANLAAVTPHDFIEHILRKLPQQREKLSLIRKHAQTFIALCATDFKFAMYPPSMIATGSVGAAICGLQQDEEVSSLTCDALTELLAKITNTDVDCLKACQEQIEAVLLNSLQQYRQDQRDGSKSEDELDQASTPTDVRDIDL
| Substitution | normalised enrichment score |
| --- | --- |
| CTLRQKLIFAPCS [S10A] | -0.0808 |
| CTLRQKLIASPCS [F9A] | -0.153 |
| CTLAQKLIFSPCS [R4A] | -0.224 |
| CALRQKLIFSPCS [T2A] | -0.193 |
| ATLRQKLIFSPCS [C1A] | -0.198 |
| CTLRAKLIFSPCS [Q5A] | 0.127 |
| CTLRQKAIFSPCS [L7A] | -0.0437 |

Study 5 — method: DHFR PCA, deep sequencing; sample: yeast; with: (+)-ABA 0.39 µM; baseline: wild-type fitted maximum; reading: higher = stronger binding
Target: ABI1, truncated, D143A, DHFR fusion (Arabidopsis thaliana)
Notes: methotrexate growth selection, single substitutions
Starting sequence: PYL1, truncated, DHFR fusion (Arabidopsis thaliana); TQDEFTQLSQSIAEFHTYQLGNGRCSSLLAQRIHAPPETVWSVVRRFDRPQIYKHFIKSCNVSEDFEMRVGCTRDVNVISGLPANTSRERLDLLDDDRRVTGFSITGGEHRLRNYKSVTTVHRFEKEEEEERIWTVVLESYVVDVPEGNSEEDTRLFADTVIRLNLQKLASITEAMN; partner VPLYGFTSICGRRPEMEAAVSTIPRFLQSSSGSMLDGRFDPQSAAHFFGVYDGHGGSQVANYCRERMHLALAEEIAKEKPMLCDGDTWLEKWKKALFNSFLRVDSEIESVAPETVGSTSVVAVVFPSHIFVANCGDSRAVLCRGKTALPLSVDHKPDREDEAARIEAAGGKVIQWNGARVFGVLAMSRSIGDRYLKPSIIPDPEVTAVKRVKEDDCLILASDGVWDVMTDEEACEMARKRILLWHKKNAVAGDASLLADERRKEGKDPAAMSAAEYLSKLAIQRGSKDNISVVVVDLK
| Substitution | relative binding score |
| --- | --- |
| P37A | 30.9% |
| T119C | 8.24% |
| Q2F | 69.4% |
| E4L | 44.6% |
| R88K | 46.9% |
| D153L | -6.01% |
| Q167F | -3.97% |
| P36R | 23.9% |
| A175K | 38.6% |
| E128Q | 47.7% |
| T1I | 52.5% |
| R88G | -7.57% |
| E129F | 25% |
| E4N | 15.5% |
| R99K | 55.1% |
| N85W | 53.2% |
| R74F | -4.12% |
| E38M | 2.19% |
| L169Q | 2.43% |
| D97V | 43.2% |
| K168A | 10.7% |

Study 6 — Molecule: B1 (IAA20); method: two-hybrid; notes: weak activation fusion; reading: higher = firmer interaction
T1: itself; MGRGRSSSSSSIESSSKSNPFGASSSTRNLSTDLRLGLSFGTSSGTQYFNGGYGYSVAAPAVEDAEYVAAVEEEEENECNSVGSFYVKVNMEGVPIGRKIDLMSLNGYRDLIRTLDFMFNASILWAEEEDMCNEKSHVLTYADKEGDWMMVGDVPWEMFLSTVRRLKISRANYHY
B1: IAA20 (Arabidopsis thaliana, UniProt O24410); chain MGRGRSSSSSSIESSSKSNPFGASSSTRNLSTDLRLGLSFGTSSGTQYFNGGYGYSVAAPAVEDAEYVAAVEEEEENECNSVGSFYVKVNMEGVPIGRKIDLMSLNGYRDLIRTLDFMFNASILWAEEEDMCNEKSHVLTYADKEGDWMMVGDVPWEMFLSTVRRLKISRANYHY
| partner | scale | positive tests |
| --- | --- | --- |
| ARF7 1030-1164 (Arabidopsis thaliana, UniProt P93022) | baseline: out of 4 tests | 2 |
| ARF5 788-902 (Arabidopsis thaliana, UniProt P93024) | baseline: out of 4 tests | 2 |
| ARF4 660-788 (Arabidopsis thaliana, UniProt Q9ZTX9) | baseline: out of 2 tests | 0 |
| ARF20 484-590 (Arabidopsis thaliana, UniProt Q9C7I9) | baseline: out of 4 tests | 0 |
| IAA28 (Arabidopsis thaliana, UniProt Q9XFM0) | baseline: out of 4 tests | 2 |
| T1, itself | baseline: out of 4 tests | 1 |
| IAA29 (Arabidopsis thaliana, UniProt Q93WC4) | baseline: out of 4 tests | 1 |
| IAA32 (Arabidopsis thaliana, UniProt Q8RYC6) | baseline: out of 4 tests | 2 |
| ARF2 727-859 (Arabidopsis thaliana, UniProt Q94JM3) | baseline: out of 4 tests | 0 |

Single results of other studies
| Molecule | target | test | test system | conditions | scale | quantity | result |
| --- | --- | --- | --- | --- | --- | --- | --- |
| PhoQ, residues 284 288 289 292 302 303 TGYLSA | PhoP, residues 12 14 15 18 19 HEGLL (Escherichia coli, UniProt P23836) | Sort-seq, measured: YFP reporter | E. coli | PhoQ-PhoP variant library, with: 10 µM Mg2+ | baseline: high Mg2+ state, higher = stronger signaling | fold induction | 6.65 |

Excerpt of the above (study 5):
| Substitution | relative binding score |
| --- | --- |
| E129F | 25% |
| N85W | 53.2% |
| E4N | 15.5% |
| E128Q | 47.7% |
| L169Q | 2.43% |
| R99K | 55.1% |
| R88G | -7.57% |
| D97V | 43.2% |
| Q2F | 69.4% |
| K168A | 10.7% |
| D153L | -6.01% |
| R74F | -4.12% |
| Q167F | -3.97% |
| E38M | 2.19% |
| P36R | 23.9% |
